Measurements pooled from the literature.
Parts stem from different laboratories: compare values within a part only. ± gives the spread as reported.

Block 1
Organism: SARS-CoV-2 Wuhan spike VSV pseudovirus
Effect on: pseudovirus entry
Concentration: 10 µM
SMILES | inhibition
Cc1nc(NCc2csc(C)n2)c2c3c(sc2n1)CCC3 | 87%
O=C(c1ccc(N2CC(O)C2)nc1)N1CCC(CCc2ccccc2)CC1 | 100%
OC[C@@H]1CN(C2CCCC2)C[C@H]1c1nc(-c2ccncc2)no1 | 56%
O=C(Cn1ncc(Cl)c(Cl)c1=O)N(C1=CCCCC1)C1CC1 | 79%
COc1cc(-n2ccnc2)cc(OC)c1OC | 100%
Cc1cc(C2CCCN2Cc2cccc(C(=O)Nc3nccs3)c2)no1 (stereo not drawn) | 99%
CC(=O)NCC(=O)N1CC(F)(F)C[C@H]1c1nc(C2CC2)no1 | 64%
CN1CCN(C(=O)c2ccc3oc(Cc4ccccc4)nc3c2)CC1c1ccccc1 (stereo not drawn) | 84%
CCc1c(O)cc(O)c(C(=O)c2ccc(OCCN3CCOCC3)c(OC)c2)c1CC(=O)N(CCOC)CCOC | 93%
CC1CCN(c2nccnc2Oc2ccc(C(=O)N3CCN(C(=O)c4ccco4)CC3)cc2)CC1 | 65%
O=C(NCCc1ccccc1)c1cccc(Nc2ccc(-c3ccccc3)nn2)c1 | 80%
CN(C)c1ccc2nc3ccc(N(C)C)cc3[s+]c2c1 | 80%
Cc1cc2oc(=O)cc(C)c2cc1NC(=O)COCC(F)(F)C(F)F | 99%
Cc1noc(C)c1CN1C[C@@H](CO)[C@H](NC(=O)c2cccnc2)C1 | 84%
O=C(c1csc2c1CCCC2)N1CCCC(CNS(=O)(=O)c2cccs2)C1 (stereo not drawn) | 81%

Mixed results
rep papain-like protease: Replicase polyprotein 1ab, papain-like protease (rep, Severe acute respiratory syndrome coronavirus 2, UniProt P0DTD1)
rep nsp12 RdRp: Replicase polyprotein 1ab, nsp12 RdRp (rep, Severe acute respiratory syndrome coronavirus 2, UniProt P0DTD1)
Matrix protein 2 S31N: Matrix protein 2 (Influenza A virus, UniProt P0DOF5, S31N)
rep nsp14: Replicase polyprotein 1ab, nsp14 (rep, Severe acute respiratory syndrome coronavirus 2, UniProt P0DTD1)
Substance | tested on | test | test system | conditions | scale | endpoint | result
N#C[C@@]1(n2ccc(N)nc2=O)O[C@H](CO)[C@@H](O)[C@H]1O | SARS-CoV-2 Omicron | viral replication | Calu-3 | – | – | EC50 | 100 ± 50 nM
O=C(O)c1cc(N(Cc2ccccc2O)Cc2ccccc2O)ccc1O | rep papain-like protease | – | – | concentration not given, C111S mutant | baseline: positive control | activity | 22.9%
NC(=O)C1=CN([C@@H]2O[C@H](COP(=O)([O-])OP(=O)([O-])OC[C@H]3O[C@@H](n4cnc5c(N)ncnc54)[C@H](O)[C@@H]3O)[C@@H](O)[C@H]2O)C=CC1.[Na+].[Na+] | rep nsp12 RdRp | binding, biolayer interferometry | – | concentration not given | – | BLI response | 0 nm
CC(N)C12CC3CC(CC1C3)C2 (stereo not drawn) | Matrix protein 2 S31N | – | – | concentration not given, pH 5.5, cell-based | – | inhibition | 0%
CCO.C[C@H]1c2cccc(O)c2C(O)=C2C(=O)[C@]3(O)C(O)=C(C(N)=O)C(=O)[C@@H](N(C)C)[C@@H]3[C@@H](O)[C@@H]21.C[C@H]1c2cccc(O)c2C(O)=C2C(=O)[C@]3(O)C(O)=C(C(N)=O)C(=O)[C@@H](N(C)C)[C@@H]3[C@@H](O)[C@@H]21.Cl.Cl.O | rep papain-like protease | – | – | concentration not given, C111S mutant | baseline: positive control | activity | 28.8%
CN([C@@H](Cc1ccc(OS(=O)(=O)c2cccc3cnccc23)cc1)C(=O)N1CCN(c2ccccc2)CC1)S(=O)(=O)c1cccc2cnccc12 | rep nsp12 RdRp | binding, biolayer interferometry | – | concentration not given | – | BLI response | -0.02 nm
CC(C)C(=O)OC[C@H]1O[C@@H](n2ccc(NO)nc2=O)[C@H](O)[C@@H]1O | SARS-CoV-2 | viral replication | Vero C1008, Omicron BA.1 | 48 h, reduction of infectious virus | – | EC90 | 9160 ± 370 nM
CCC(CC)COC(=O)[C@H](C)N[P@](=O)(OC[C@H]1O[C@@](C#N)(c2ccc3c(N)ncnn23)[C@H](O)[C@@H]1O)Oc1ccccc1 | SARS-CoV-2 | viral replication | Vero, Alpha | – | – | EC90 | 1000 ± 700 nM
SLVAHTAAQSTIEEQAKTFLDKFN | SARS-CoV-2 spike RBD | peptide spot array | peptide | concentration not given | baseline: wild-type ACE2 peptide | relative binding | 3.03
CC(C)=CCNc1ncnc2c1ncn2[C@@H]1O[C@H](CO)[C@@H](O)[C@H]1O | SARS-CoV-2 | cytopathic effect | Vero C1008, Omicron BA.1 | 48 h | – | IC100 | 1.08 µM
Cl.NC12C3CCC4C3C3C(CCC31)C42 | Matrix protein 2 S31N | – | – | concentration not given, pH 5.5, cell-based | – | inhibition | 0%
O=C(NC1CCN(c2ncnc3[nH]cnc23)CC1)c1cccc(S(=O)(=O)N2CCCCC2)c1 | rep nsp14 | NSP14 enzyme activity, inhibitor | – | 50 µM | – | inhibition | 83.7%
SLVAVHAAQSTIEEQAKTFLDKFN | SARS-CoV-2 spike RBD | peptide spot array | peptide | concentration not given | baseline: wild-type ACE2 peptide | relative binding | 3.34
O=C(NC1CCN(c2ncnc3[nH]cnc23)CC1)c1cccc(S(=O)(=O)N2CCC2)c1 | rep nsp14 | NSP14 enzyme activity, inhibitor | – | 0.7812 µM | – | inhibition | 11.1%
CCC(CC)[C@H](NC(C)=O)[C@@H]1[C@H](O)[C@@H](C(=O)O)C[C@H]1N=C(N)N | neuraminidase (Influenza B virus, UniProt C0LT34, I221V) | – | – | – | – | IC50 | 5.5 ± 1.2 nM

Some of these lines once more (block 1):
SMILES | inhibition
OC[C@@H]1CN(C2CCCC2)C[C@H]1c1nc(-c2ccncc2)no1 | 56%
Cc1noc(C)c1CN1C[C@@H](CO)[C@H](NC(=O)c2cccnc2)C1 | 84%
CC1CCN(c2nccnc2Oc2ccc(C(=O)N3CCN(C(=O)c4ccco4)CC3)cc2)CC1 | 65%
CN1CCN(C(=O)c2ccc3oc(Cc4ccccc4)nc3c2)CC1c1ccccc1 (stereo not drawn) | 84%
